Experimental data gathered from unrelated publications.
Numbered parts are unrelated; each lists some results of a single study. Several values in a cell are separate wells, animals, samples, runs or records.

Sample 1 — read-out: ligand displacement; tested at: 10 µM; endpoint: inhibition
Target: Histamine H1 receptor (HRH1, Homo sapiens, UniProt P35367)
Chain of UniProt P35367 (whole entry, looked up): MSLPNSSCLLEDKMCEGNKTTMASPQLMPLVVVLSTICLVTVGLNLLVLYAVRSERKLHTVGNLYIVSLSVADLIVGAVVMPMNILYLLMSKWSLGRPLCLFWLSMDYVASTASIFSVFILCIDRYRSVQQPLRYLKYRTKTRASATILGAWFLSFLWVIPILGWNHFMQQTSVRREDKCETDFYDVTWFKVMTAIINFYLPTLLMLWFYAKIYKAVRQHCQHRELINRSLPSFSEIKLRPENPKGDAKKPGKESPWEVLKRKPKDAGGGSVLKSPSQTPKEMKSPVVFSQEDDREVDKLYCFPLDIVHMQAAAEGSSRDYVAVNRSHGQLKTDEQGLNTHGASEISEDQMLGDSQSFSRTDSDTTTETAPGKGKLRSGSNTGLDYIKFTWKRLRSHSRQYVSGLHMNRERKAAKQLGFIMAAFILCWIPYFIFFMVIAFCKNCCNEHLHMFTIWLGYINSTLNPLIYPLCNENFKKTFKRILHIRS
SMILES = CN(C)C(=O)c1sc2nc(N3CCC(S(C)(=O)=O)CC3)cc(C(F)(F)F)c2c1N; result = 24.5%
SMILES = Cc1ccc(-c2cnc([C@@]3(O)CC[C@H](C(=O)O)C(C)(C)C3)s2)cc1Nc1cccc(C(F)(F)F)n1; result = 9.09%
SMILES = N#CC1(c2ccccn2)CCN(Cc2cc(C(=O)N3CCCC3)c(=O)n3ccccc23)CC1; result = 9.7%
SMILES = O=C(Nc1ccc(Oc2ccc(F)cc2)cc1)N1CCc2ncccc2[C@H]1c1ccc(F)cc1; result = 15.9%
SMILES = CO[C@H]1CC[C@H](CNc2ccc(S(=O)(=O)NC(=O)c3ccc(N4CCN(CC5=C(c6ccc(Cl)cc6)CC(C)(C)CC5)CC4)cc3Oc3cnc4[nH]ccc4c3)cc2[N+](=O)[O-])CC1; result = 34.2%
SMILES = O=C(NCCCC1CCCCC1)c1ccc(CNC(=O)c2cnn(-c3ccccc3)c2C(F)(F)F)cc1; result = 63%
SMILES = CN(C)c1ncnc(-c2ccc3nc(Nc4cc(CN5CCN(C(=O)CC(F)(F)F)CC5)ccn4)[nH]c3c2)c1Cl; result = 26.4%
SMILES = O=S(=O)(NC1CCC(c2cc(F)ccc2F)(S(=O)(=O)c2ccc(Cl)cc2)CC1)C(F)(F)F (stereo not shown); result = 20.3%

Sample 2 — read-out: enzyme activity; mode: inhibitor; tested at: 0.5 µM; relative to: control; endpoint: remaining activity
Target: Ephrin type-A receptor 4 (EPHA4, Homo sapiens, UniProt P54764)
Chain of UniProt P54764 (whole entry, looked up): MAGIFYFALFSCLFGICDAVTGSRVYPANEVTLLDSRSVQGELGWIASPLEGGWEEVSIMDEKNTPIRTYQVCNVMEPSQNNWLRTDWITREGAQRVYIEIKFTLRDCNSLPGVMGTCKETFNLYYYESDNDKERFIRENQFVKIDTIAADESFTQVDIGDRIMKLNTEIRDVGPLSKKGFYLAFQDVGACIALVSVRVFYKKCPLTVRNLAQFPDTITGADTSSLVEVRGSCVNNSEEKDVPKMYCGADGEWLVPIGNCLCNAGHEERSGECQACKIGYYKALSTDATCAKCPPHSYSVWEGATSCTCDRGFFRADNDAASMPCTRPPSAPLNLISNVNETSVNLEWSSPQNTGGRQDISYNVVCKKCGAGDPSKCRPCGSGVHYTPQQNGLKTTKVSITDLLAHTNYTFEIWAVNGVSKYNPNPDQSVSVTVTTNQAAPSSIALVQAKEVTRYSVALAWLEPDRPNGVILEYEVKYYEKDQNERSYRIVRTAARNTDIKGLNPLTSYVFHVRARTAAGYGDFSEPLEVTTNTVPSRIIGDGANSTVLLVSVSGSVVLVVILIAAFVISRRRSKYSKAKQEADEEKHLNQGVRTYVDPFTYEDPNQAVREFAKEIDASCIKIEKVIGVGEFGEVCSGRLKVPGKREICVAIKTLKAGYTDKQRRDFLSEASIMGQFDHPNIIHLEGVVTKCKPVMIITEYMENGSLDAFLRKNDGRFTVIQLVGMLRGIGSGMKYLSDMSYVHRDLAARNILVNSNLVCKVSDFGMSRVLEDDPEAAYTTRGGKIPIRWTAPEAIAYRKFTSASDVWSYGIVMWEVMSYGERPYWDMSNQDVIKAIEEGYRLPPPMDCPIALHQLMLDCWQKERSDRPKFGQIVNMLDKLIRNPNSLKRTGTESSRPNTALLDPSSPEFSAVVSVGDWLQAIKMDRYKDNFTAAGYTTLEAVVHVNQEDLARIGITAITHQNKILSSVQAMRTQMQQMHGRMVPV
Structure (SMILES) = CNC(=O)c1cc(Oc2ccc(NC(=O)Nc3ccc(Cl)c(C(F)(F)F)c3)cc2)ccn1; result = 92.5%
Structure (SMILES) = COc1cc2nccc(Oc3ccc(NC(=S)NC(=O)c4ccccc4C)cc3)c2cc1OC; result = 81.4%
Structure (SMILES) = COc1cc2ncnc(Nc3ccc(Oc4ccccc4)cc3)c2cc1OC; result = 106%
Structure (SMILES) = O=C(CCCc1ccc(-c2ccccc2F)cc1)Nc1ccc(O)cc1; result = 99.2%
Structure (SMILES) = Cc1ccc(NC(=O)c2ccc(CN3CCN(C)CC3)cc2)cc1Nc1nc(-c2cccnc2)cs1; result = 105%
Structure (SMILES) = Cc1ccc(Nc2nccc(N(C)c3ccc4c(C)n(C)nc4c3)n2)cc1S(N)(=O)=O; result = 94.5%
Structure (SMILES) = Nc1[nH]nc2nc3ccccc3nc12; result = 86.5%
Structure (SMILES) = COc1ccc(C(=O)Nc2sc3c(c2C(N)=O)CCCC3)cc1OC; result = 104%
Structure (SMILES) = COc1ccc(CNC(=O)Nc2ncc([N+](=O)[O-])s2)cc1; result = 101%
Structure (SMILES) = CO[C@H]1C[C@@H]2CC[C@@H](C)[C@@](O)(O2)C(=O)C(=O)N2CCCC[C@H]2C(=O)O[C@H]([C@H](C)C[C@@H]2CC[C@@H](O)[C@H](OC)C2)CC(=O)[C@H](C)/C=C(\C)[C@@H](O)[C@@H](OC)C(=O)[C@H](C)C[C@H](C)/C=C/C=C/C=C/1C; result = 115%
Structure (SMILES) = Nc1ncnc2n[nH]c(Nc3ccc(F)cc3)c12; result = 90.1%
Structure (SMILES) = Nc1ccc2ncnc(NCCc3ccc(Oc4ccccc4)cc3)c2c1; result = 98.5%
Structure (SMILES) = COc1ccc(OC)c2c(=S)c3ccccc3[nH]c12; result = 88.8%
Structure (SMILES) = O=c1c2ccccc2[nH]c(=S)n1CCN1CCC(=C(c2ccc(F)cc2)c2ccc(F)cc2)CC1; result = 99.4%
Structure (SMILES) = COc1cc2ncnc(Nc3ccc(F)c(Cl)c3)c2cc1OCCCN1CCOCC1; result = 90.2%
Structure (SMILES) = O=C(O)c1ccc2c3c1cccc3c(=O)n1c3ccccc3nc21; result = 103%

Sample 3 — Compound: C=CCc1ccc(O)c(-c2ccc(O)c(CC=C)c2)c1; read-out: chloride current; technique: whole-cell patch clamp; endpoint: normalised current
Target: Anoctamin-1 (ANO1, Homo sapiens, UniProt Q5XXA6, del476-501)
Chain of UniProt Q5XXA6 (whole entry, unmodified, looked up): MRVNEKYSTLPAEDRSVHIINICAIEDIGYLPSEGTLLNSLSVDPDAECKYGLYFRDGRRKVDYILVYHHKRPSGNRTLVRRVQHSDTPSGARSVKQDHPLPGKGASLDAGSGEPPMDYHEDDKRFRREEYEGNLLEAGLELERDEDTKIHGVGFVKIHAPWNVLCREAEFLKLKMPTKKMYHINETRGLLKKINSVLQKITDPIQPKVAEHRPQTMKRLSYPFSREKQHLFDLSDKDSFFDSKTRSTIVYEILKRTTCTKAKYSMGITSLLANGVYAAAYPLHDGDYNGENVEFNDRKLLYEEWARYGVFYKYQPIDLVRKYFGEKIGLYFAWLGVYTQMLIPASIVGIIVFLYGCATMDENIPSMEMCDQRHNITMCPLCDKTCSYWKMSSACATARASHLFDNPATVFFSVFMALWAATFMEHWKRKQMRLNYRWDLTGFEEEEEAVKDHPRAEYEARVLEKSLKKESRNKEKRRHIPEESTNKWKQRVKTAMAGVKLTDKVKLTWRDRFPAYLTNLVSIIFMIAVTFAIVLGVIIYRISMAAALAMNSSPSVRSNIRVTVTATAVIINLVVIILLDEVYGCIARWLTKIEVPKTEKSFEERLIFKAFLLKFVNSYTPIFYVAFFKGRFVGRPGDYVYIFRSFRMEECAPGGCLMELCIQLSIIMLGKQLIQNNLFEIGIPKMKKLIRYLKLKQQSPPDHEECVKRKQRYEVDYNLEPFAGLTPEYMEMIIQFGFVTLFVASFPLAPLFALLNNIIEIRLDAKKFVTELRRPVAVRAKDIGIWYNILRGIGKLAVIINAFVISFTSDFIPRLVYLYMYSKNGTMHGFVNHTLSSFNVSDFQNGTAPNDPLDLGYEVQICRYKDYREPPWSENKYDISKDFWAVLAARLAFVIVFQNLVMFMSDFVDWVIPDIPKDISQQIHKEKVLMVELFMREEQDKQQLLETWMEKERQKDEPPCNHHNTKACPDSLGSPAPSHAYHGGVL
tested at = 1 µM; notes = 40 mV, 300 nM free Ca2+; added = honokiol and magnolol 10 µM; result = 0.15
tested at = 100 µM; notes = 60 mV, 300 nM free Ca2+; result = 0.0303 and 0.0318
tested at = 3 µM; notes = 0 mV, 300 nM free Ca2+; result = -0.0006
tested at = 1 µM; notes = 100 mV, 300 nM free Ca2+; added = honokiol and magnolol 10 µM; result = 0.652
tested at = 3 µM; notes = 20 mV, 300 nM free Ca2+; added = honokiol and magnolol 10 µM; result = 0.0264
tested at = 30 µM; notes = 20 mV, 300 nM free Ca2+; added = honokiol and magnolol 10 µM; result = 0.0045
tested at = 1 µM; notes = -20 mV, 300 nM free Ca2+; added = honokiol and magnolol 10 µM; result = -0.0423
tested at = 3 µM; notes = 20 mV, 300 nM free Ca2+; result = 0.0521 and 0.0547

Sample 4 — read-out: enzyme activity; mode: inhibitor; tested at: 10 µM; endpoint: inhibition
Target: Calcium/calmodulin-dependent protein kinase type II subunit alpha (CAMK2A, Homo sapiens, UniProt Q9UQM7)
Chain of UniProt Q9UQM7 (whole entry, looked up): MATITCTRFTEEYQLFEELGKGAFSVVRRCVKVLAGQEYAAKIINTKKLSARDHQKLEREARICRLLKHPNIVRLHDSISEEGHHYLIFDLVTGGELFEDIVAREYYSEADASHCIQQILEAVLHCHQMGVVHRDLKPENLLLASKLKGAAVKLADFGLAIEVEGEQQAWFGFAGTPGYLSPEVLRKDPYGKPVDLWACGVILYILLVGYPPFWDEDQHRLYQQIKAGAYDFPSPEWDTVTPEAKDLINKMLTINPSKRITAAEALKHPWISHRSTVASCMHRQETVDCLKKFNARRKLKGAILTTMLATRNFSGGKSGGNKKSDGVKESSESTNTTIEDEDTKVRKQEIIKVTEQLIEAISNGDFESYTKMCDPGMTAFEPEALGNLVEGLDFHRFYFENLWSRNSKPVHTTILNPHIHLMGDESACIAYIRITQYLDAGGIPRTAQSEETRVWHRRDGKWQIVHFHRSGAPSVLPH
SMILES = CCC(=O)C(C)=O; result = -22%
SMILES = CCCCCCCCCCCCCCCCCC(=O)NCCO; result = -25%
SMILES = CC(=O)N[C@@H](Cc1c[nH]c2ccccc12)C(=O)O; result = 37%
SMILES = CC(C)[C@@H]1NC(=O)CNC(=O)[C@H](C)NC(=O)[C@H](Cc2c[nH]c3ccccc23)NC(=O)[C@H](C)NC1=O; result = -54%
SMILES = CC(=C(CCO)SSCC1CCCO1)N(C=O)Cc1cnc(C)nc1N (stereo in doubt); result = 1%
SMILES = CCCCCCCCCC(O)CC(=O)O (stereo not shown); result = 14%
SMILES = C=C1C[C@@]23CC[C@H]4[C@@](C)(CCC[C@@]4(C)C(=O)O)[C@@H]2CC[C@@H]1C3; result = -29%
SMILES = CC(=O)Oc1cccc(O)c1; result = 0%

Excerpt of the above (sample 2):
Structure (SMILES) = CNC(=O)c1cc(Oc2ccc(NC(=O)Nc3ccc(Cl)c(C(F)(F)F)c3)cc2)ccn1; result = 92.5%
Structure (SMILES) = COc1cc2nccc(Oc3ccc(NC(=S)NC(=O)c4ccccc4C)cc3)c2cc1OC; result = 81.4%
Structure (SMILES) = COc1cc2ncnc(Nc3ccc(Oc4ccccc4)cc3)c2cc1OC; result = 106%
Structure (SMILES) = O=C(CCCc1ccc(-c2ccccc2F)cc1)Nc1ccc(O)cc1; result = 99.2%
Structure (SMILES) = Cc1ccc(NC(=O)c2ccc(CN3CCN(C)CC3)cc2)cc1Nc1nc(-c2cccnc2)cs1; result = 105%
Structure (SMILES) = Cc1ccc(Nc2nccc(N(C)c3ccc4c(C)n(C)nc4c3)n2)cc1S(N)(=O)=O; result = 94.5%
